Published values of several laboratories.
Every numbered part comes from another study and shows a few of its results, in no order.

Set 1
Target: Interferon regulatory factor 7, full length, phosphomimetic (IRF7, Homo sapiens, UniProt Q92985, residues 1-503, S101K/S471D/S472D/S475D/S476D/S477D/S483D/S484D/S487D)
Technique: protein-binding microarray
Form: double-stranded DNA, one strand shown
Matrix: in vitro
Concentration: 250 nM
Setting: 60-bp whole probe
Added: salmon DNA 0.4 mg/ml
Reference: random background probes
Direction: higher = stronger binding
All sequences stand within: GCCTAGCAC … GTCTTGATTCGCTTGACGCTGCTG
Residues (chain): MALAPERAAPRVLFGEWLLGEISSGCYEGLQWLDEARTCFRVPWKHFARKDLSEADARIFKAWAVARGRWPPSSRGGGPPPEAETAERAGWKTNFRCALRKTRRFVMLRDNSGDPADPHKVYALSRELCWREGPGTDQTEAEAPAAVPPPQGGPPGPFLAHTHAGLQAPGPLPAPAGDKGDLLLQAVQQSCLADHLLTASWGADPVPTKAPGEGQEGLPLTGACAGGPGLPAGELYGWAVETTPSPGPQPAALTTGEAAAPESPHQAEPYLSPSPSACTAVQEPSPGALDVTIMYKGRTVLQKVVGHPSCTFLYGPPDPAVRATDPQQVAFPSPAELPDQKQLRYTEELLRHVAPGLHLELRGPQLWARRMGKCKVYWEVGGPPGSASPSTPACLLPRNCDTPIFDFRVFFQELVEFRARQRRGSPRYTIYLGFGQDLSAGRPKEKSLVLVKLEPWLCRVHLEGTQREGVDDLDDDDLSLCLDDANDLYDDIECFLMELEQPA
| Strand | log fluorescence |
| --- | --- |
| TCATTCCTGAAATCTCTTACTGTGCTA | 1.07 z-score |
| GACGGTTTCGACTTTCGTGACGTGCTA | 10.6 z-score |
| CTGCCTGTCCATTCCTTCCAGTGCTAG | -0.0618 z-score |
| TTTCTTTTATGCTCTTTCTACGTGCTA | 1.45 z-score |
| TTAGGTATCGGGACTGCGTTAGTGCTA | -0.256 z-score |
| GACGGACAGGACTTTCGGGACGTGCTA | -0.669 z-score |
| CTTAGAATAATTTTTTAGCTTGTGCTA | -0.0597 z-score |
| TTAGGTTTGGGGTTTCGGTTAGTGCTA | 5.17 z-score |
| TTCTTGCGGAGTTTCTTGCAGTGCTAG | -0.0701 z-score |
| TTAGGTTTCGACTTACGGTTAGTGCTA | 12.6 z-score |
| TCACTTTTTTTTTTCCCACTGTGCTAG | 1.46 z-score |
| GACGGTTTCCTATCCCTGACGTGCTAG | 2.28 z-score |
| TTCACTTTAACTTATTCTCTAGTGCTA | 0.381 z-score |
| GACGGAATGCTACTGCTGACGTGCTAG | -0.805 z-score |
| GACGGTATCCTACTGGTGACGTGCTAG | -0.477 z-score |
| GTGGCCTTTGTTTCCAGGCAGTGCTAG | 0.313 z-score |
| GACGGACTGGGTCTTGGGACGTGCTAG | -0.7 z-score |

Set 2
Target: RNA binding protein fox-1 homolog 2, RRM domain, GST-SBP tag (RBFOX2, Homo sapiens, UniProt O43251-10, residues 100-194)
Technique: RNA Bind-n-Seq
Form: RNA
Matrix: in vitro
Concentration: 365 nM
Setting: natural RNA segment, single round, ends assumed
Reference: no-protein control
Direction: higher = stronger binding
All sequences stand within: GGGAGUUCUACAGUCCGACGAUC … UGGAAUUCUCGGGUGCCAA
Target sequence (chain): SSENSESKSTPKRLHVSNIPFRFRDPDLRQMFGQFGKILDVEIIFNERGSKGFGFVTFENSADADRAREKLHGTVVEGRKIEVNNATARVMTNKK
| Strand | RBNS enrichment (R) |
| --- | --- |
| GCUGAGCCAAAUGCCCAGCACUGCCCCCACCUAACUGGGCACUUGUCUAGGGCACACCACCCCCAGCUGCUCACACACAGACCACAUAUUCCUUCUGGGAAGGCCAGCAU | 0.297 |
| AGCUGGUAGGGACAUUACACCAGGUACCCCGUGGCUAUCCCUACCCAGUGUCGGUGGCCCGGCACAGGGCCGUGCUCUGUCGGACUGUACGGAUUGUUCAGCUUCAGACU | 0.349 |
| AGUUAACAUUUAAAGGAGUUUUUGUGAGACAAAUUCUCCAUUGUGAGAUCUCUGAAGUGGGAUUGUCUUAUUUUCCUUAGUACAGCCCACUGCCAAAAAGCUUCCUCUGA | 0.311 |
| GCAGUUUAUUUUUCUUGGCCAACACAUUAAAACCAUUCUUGGAUUUCAAGUAGCCAAUUUUGCCUUUUUAUGUAUUUUUACAUAGUUUCCUCUUCAAGAAAAAAAAAGCA | 0.919 |
| UUCAGUUGCUCUAAGCACCAGAGGACUUGUUUCAGAAAAGGGGAGUGGGAACGCCCUCGACUUUGCCCUCCUCCGGAGCAUCUCUGGGACGCAGGGAGUCUGGCUAGCGU | 1.11 |
| AGUAGUUUAGCUUGUUUAUUGCAAUGCUGGCCUCAACACAACAGAAUAAAAAUGGUAGAAAGUACUCUUUGAUGUUUCUGGUAAUCAUGGACCCUUCUCCUGGGGCAUUU | 0.365 |
| CAAAAGAGGUUGGUAUGAUAAAGUGAUGGCUUUUUUCUUAUAUAAAUAGAAUGCAAAUCAAAGAUAUAACCAGUGUGAUUGAUUGCAAGUAGUCAAGUGUAACUAACUCC | 0.697 |
| AACUGAGGACUUUAAAAGAGAUUUUCCCUUCCCAAACGUGUCUGGACAGUACCUGAUUGUAUUUUUUUUGUUUUGUUUUGUUUUUUAAUAAAAGCACAGUACUUUUCAGU | 0.917 |
| CAAAAGAUUUGUGUAUGCAUUGCCUAAUUAGAGUAGGGGGAGAAGGGCAACUAUUAUUAUCCCUAUUUUACAAAACUGAGGCUUAGUGAGGUUCAGCCACAUGCCUAGAC | 0.375 |
| CAGAAAUGGAAAAAACUCUGCAAGAGAGUCUUGCUUUCAAGGAGAAAGGAAAAUGGCUUUGAAAAUGAGACAGUCUUUGUGGGUUUUGUCGUUGGUUUUUGUUUGUUUAC | 1.65 |
| UUCUUGUCUGUAUUGGUUUUUGAUCACGGCCUGGUGUUGUGAUACUGGGAAGAGCAUUAGCCAAGAACUUGUCUCUUUGAUCUGUUUCGUUAAGCUGAACCAGUGUCUUU | 0.347 |
| CCACCAGAGGGAAGAGUCUCUUGUGGGUGUGUUGGGUCUCCUAAUAAGAUGACUCUCCAUCUAGAUCAAGUCUUAGCAUCAUACGCAUCACUGUGAACGGAGGGAAGUGC | 0.455 |

Set 3
Target: RING finger protein unkempt homolog, zinc fingers 1-6, GST-SBP tag (UNK, Homo sapiens, UniProt Q9C0B0, residues 30-357)
UniProt Q9C0B0, sequence (30-357, looked up): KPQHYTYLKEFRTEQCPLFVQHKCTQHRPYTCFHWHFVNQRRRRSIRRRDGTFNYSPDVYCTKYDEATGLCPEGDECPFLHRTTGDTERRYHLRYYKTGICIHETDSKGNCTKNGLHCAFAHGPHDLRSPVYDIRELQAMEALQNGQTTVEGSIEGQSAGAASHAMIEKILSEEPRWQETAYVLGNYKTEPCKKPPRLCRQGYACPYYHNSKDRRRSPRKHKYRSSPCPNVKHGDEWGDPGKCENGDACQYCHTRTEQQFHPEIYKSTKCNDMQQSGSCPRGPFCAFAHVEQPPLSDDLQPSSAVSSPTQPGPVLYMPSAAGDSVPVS
Technique: RNA Bind-n-Seq
Form: RNA
Matrix: in vitro
Concentration: not given
Setting: RNA with constant flanks, ends assumed
Reference: input RNA pool
Direction: higher = stronger binding
All sequences stand within: GGGAGUUCUACAGUCCGACGAUC … CAACAGAGGAUUGAGCAUCA
| Strand | bound/input enrichment [ratio] |
| --- | --- |
| UAAUUUGGCUGCAAUUGCAUGAAAUCCCAAUGGUGUAGACCAGUGGCGAUGGAUCCCGGAGUUUACCAACUGAGACAUUUUUCCAUUUCUUUCUUGUCGUCUUUGCUGGGAACCGAAAAC | 0.264 |
| GCCUUGGUCCUAGCACCCACUCGAGAAUUGGCUCAGCAGAUACAGAAGGUGGUCAUGGCACCCGGAGACUACAUGGGCGCCUCCUGUCACGCCUGUAUCGGGGGCACCAACGUGCGUGCU | 0.129 |
| CAAUCUAGAAAUUUUGAAUACCAUGAGGAAAGACAUUUCCAUGGGCACUAUGACCCUGAAUACCGACAUGAUCAACAAAGACCCUUUACUUGGAGAAUGGAUGAUGAAAAACAUGGACAA | 3.13 |
| CCUGAGCUAAAAUACCCAAAAGGAGCUGGGAGAGUUGCGUUCUCUAAUCAACAGAGUUACACCGCUGCUAUCAGUGCCCGCUUUGUUCAGCUGCAGCAUGGAGAGAUAGAUAAACGGGUG | 0.198 |
| ACAUCUCCAGCAGCAGACAACAUAGAAAAGGAGGCGCUUCCUCGUUAUGAGCCAAUUCCAUUCCGUGCUUCUAUGAACGAGUCCACUCCCACUGGUAUUACUGACCAUAUUGCCCAAGGA | 0.215 |
| GCUUUUUAUCUUCUAGCAUUUUUUUACUACCUAUAUGGCAUGAUCUAUGUUUUGGUGAGCUCUCCGAACAACACACAGAAGAAUUGGUCCAGUUAAGUGCAUGCAAAAAGCCACCAAAUG | 3.77 |
| UACAAGUAUUUUAAUUUAAGUUCAGUGAACUUUUUUGUAGCUGGGUUAAAUCUUUUUAUUUUCCGUAUGGCCUUAUGGCAAAGAACACUGUAUUAUUUUAAUAAUCACACGAUUGUGACG | 0.555 |
| CCUCCUUUAUUAAUUUUCUUCCAAAGACAAGGGAAGGCCGGCGGACGACCUGUGGGCCCUUCCGUUACCAAGUCGCAGUGGUACGCGGAGGACCGAGACUAGGAACGGACCUUGACCUUU | 0.202 |
| AUUGAGAAAUAAUACUAUCUUCUACGUUACUUGUGUAAAAGGUGUGUCUGAUUGGACUUGUUCCGAAUUCCUUUUAAAACUAACUCAUUAGAUUGAAGGUAUAUUUUCUAAUUACAGUUC | 1.35 |
| UUAAAUAUCUCUGGCUCAAGUGUUCACCCAGUAAAAGAAAGAUCCAGAAAGCACUGUUUUCCGCAUUACGUAUCUGUGUGUUACUGCUGUGUUAUUUACACUGUUUUGUAUUGUACAAUA | 0.155 |
| UACAUGGGCUCACAGAAGCAAUUUAAAAUUACCAAACUCUCACCAGCAAUGGGUUGUAAAUUCCGAUUAUCAGCCAAAAAUGACUAUGGUGUAAGUGAUUUUAGUGAAGAGGUCCUGUAC | 0.168 |

Set 4
Target: Sal-like protein 4, full length isoform A (SALL4, Homo sapiens, UniProt Q9UJQ4, residues 1-1053)
UniProt Q9UJQ4, sequence (whole entry, looked up): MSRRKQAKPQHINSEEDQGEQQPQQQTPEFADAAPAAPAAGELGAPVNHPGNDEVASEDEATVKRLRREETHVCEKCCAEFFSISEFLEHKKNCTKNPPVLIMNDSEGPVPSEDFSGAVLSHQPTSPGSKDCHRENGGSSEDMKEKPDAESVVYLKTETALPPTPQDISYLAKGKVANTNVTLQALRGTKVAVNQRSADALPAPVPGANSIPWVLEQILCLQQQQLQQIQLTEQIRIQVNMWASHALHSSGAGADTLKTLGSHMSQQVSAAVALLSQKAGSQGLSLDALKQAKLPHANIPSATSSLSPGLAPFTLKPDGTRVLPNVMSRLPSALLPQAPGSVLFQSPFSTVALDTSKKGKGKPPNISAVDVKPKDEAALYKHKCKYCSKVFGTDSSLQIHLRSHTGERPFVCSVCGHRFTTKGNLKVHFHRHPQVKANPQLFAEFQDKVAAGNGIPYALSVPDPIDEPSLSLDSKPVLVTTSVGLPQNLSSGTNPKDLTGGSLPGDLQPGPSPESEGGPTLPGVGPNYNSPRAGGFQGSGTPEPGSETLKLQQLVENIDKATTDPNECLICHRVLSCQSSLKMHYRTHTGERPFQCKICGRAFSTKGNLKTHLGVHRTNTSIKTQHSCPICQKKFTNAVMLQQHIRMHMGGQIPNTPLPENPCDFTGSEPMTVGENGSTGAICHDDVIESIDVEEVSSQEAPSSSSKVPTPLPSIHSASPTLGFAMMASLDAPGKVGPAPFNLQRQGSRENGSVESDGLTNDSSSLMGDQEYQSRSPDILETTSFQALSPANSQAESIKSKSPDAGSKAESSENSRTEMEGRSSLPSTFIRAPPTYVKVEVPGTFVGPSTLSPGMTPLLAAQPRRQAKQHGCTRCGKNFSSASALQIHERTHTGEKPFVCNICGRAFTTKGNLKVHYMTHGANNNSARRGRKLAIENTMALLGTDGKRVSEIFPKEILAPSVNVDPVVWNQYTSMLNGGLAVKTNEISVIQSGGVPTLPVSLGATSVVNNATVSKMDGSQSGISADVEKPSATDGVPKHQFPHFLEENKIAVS
Technique: universal PBM
Form: double-stranded DNA, one strand shown
Matrix: in vitro
Concentration: 600 nM
Setting: 8-mer, flanks averaged, mean of replicates
Direction: higher = stronger binding
| Strand | E-score |
| --- | --- |
| AGCACCCT | -0.293 |
| TACGCCTA | 0.0627 |
| CAGACGCG | -0.381 |
| GGAGCGAA | -0.0539 |
| TAGGCAAA | 0.0956 |
| CATTATCG | 0.129 |
| CCGCCGCA | -0.204 |
| CAACTGCA | 0.0309 |
| ACCCCTCA | -0.236 |
| AATGTACA | 0.27 |
| ATCCTTCA | 0.132 |
| GGCGCTGA | -0.223 |
| ATTTTTTC | 0.368 |
| GACTATAA | 0.285 |
| CTCACGAG | -0.267 |
| AAACAGGC | -0.12 |
| GAAAAAAA | 0.325 |
| ACTTAGCA | 0.0511 |
| CCGCATCG | -0.318 |
| ATTTGTGC | 0.153 |
| AAAAGAGT | 0.031 |
| CCCGACAA | 0.0358 |
| AACCGGCT | -0.101 |
| CCCAGGGC | -0.439 |

Set 5
Target: Histone acetyltransferase KAT6A, winged helix 1, GST fusion (KAT6A, Homo sapiens, UniProt Q92794, residues 1-85)
Technique: protein binding microarray
Form: double-stranded DNA, one strand shown
Matrix: in vitro
Concentration: not given
Setting: 8-mer, flanks averaged, mean of 2 arrays, mostly near background
Reference: not given
Direction: higher = stronger binding
Construct (chain): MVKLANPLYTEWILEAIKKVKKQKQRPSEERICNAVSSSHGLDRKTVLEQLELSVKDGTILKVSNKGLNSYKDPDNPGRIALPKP
| Strand | E-score |
| --- | --- |
| AACCGCTC | 0.155 |
| GTTCCAAC | -0.0577 |
| AGCGCACC | 0.284 |
| AAGGGGGG | -0.18 |
| CTAATGGC | -0.13 |
| AATAGGGA | -0.0981 |
| AAATACGG | 0.00615 |
| CACGTGTA | -0.159 |
| CGCCGGAA | 0.335 |
| AAGTCCGT | 0.234 |
| CCCTTACC | 0.0966 |
| AATCCAAC | -0.152 |
| AACTCTAG | -0.277 |
| AATCTCAG | -0.0888 |
| CCGGCGCG | 0.45 |
| AGTTCCGG | 0.0698 |
| AAGTGAAG | -0.133 |
| ACATTGAC | 0.0451 |

For quick reference, copied from above (set 5):
| Strand | E-score |
| --- | --- |
| CACGTGTA | -0.159 |
| CGCCGGAA | 0.335 |
| AAGTCCGT | 0.234 |
| CCCTTACC | 0.0966 |
| AATCCAAC | -0.152 |
| AACTCTAG | -0.277 |
| AATCTCAG | -0.0888 |
| CCGGCGCG | 0.45 |
| AGTTCCGG | 0.0698 |
| AAGTGAAG | -0.133 |
| ACATTGAC | 0.0451 |
